Assay results pooled from the literature.
Parts stem from different laboratories: compare values within a part only. Substitutions count along the parent as printed.

Sample 1
Target: CCNB3, cyclin fold, Cln2 fusion (human)
Technique: yeast growth competition, sequencing
Matrix: yeast
Setting: weak parent motif
Reference: not given
Reading: higher = stronger binding
Starting sequence: SLBP docking peptide (human); ARYKRKLLINDFG; partner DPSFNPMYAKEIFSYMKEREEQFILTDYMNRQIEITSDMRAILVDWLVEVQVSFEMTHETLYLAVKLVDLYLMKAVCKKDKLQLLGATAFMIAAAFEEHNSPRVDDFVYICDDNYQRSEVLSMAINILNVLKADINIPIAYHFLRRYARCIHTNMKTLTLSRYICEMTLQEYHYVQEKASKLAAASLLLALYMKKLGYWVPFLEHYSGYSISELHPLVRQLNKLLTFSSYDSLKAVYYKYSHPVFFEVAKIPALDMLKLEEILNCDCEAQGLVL
| Variant | normalised enrichment score |
| --- | --- |
| ARYKRKLLINDVG [F12V] | -0.175 |
| ARYKCKLLINDFG [R5C] | 0.452 |
| ARYKRKLLINDNG [F12N] | 0.0507 |
| ARMKRKLLINDFG [Y3M] | 0.357 |
| ARYKRKALINDFG [L7A] | -0.0358 |
| ARYKGKLLINDFG [R5G] | 0.22 |
| ERYKRKLLINDFG [A1E] | 0.205 |
| ARYKRKLLIADFG [N10A] | 0.131 |
| ANYKRKLLINDFG [R2N] | 0.654 |
| ASYKRKLLINDFG [R2S] | -0.255 |

Sample 2
Target: Ras GTPase-activating protein-binding protein 1, C-terminal RGG region (G3BP1, Homo sapiens, UniProt Q13283)
Sequence of UniProt Q13283 (whole entry, looked up): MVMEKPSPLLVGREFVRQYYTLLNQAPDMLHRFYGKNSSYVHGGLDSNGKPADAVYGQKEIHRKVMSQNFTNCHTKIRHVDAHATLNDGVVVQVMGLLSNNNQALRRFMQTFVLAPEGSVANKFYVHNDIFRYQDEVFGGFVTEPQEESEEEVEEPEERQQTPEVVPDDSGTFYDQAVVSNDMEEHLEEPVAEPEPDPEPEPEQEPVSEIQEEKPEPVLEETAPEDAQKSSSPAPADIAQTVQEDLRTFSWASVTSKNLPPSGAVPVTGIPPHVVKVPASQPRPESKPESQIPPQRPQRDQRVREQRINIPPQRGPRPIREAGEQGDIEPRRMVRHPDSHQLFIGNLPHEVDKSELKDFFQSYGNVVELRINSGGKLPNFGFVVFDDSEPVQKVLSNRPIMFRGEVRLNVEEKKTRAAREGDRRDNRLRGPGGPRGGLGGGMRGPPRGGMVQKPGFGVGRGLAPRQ
Technique: RNA Bind-n-Seq
Form: RNA
Matrix: in vitro
Concentration: 1 µM
Setting: whole 134-nt RNA, ends assumed
Together with: 150 mM KCl
Reference: input library
Reading: higher = stronger binding
| Strand | log2 enrichment |
| --- | --- |
| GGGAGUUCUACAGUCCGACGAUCCACAGACAACACGCACCCACACAGACACAGUGGGAAGGGGUUGGGAUGGGGACAGGGUGCACAGCAGGGCGGGGUAGGACCCCAGCCCCUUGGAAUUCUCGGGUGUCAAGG | 1.28 |
| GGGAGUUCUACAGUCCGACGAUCGUCCUGUGCUACACAUCGUAUGUACCGAAUCGGGGUUUGGGGUUUUUGGGGAAAGGGGAAAGUAUUAUGUUACGCCGUUCGGAUCUGCACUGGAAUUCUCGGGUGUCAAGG | 2.52 |
| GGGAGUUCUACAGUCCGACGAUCCUCAAGUCCUGUGCUACACAUCGUAUGUACCGAAUCGGGUUGGGGUUGGGUUGGAAAGUAUUAUGUUACGCCGUUCGGAUCUGCACUUCCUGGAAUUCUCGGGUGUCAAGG | -0.198 |
| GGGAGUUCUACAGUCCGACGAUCAAGUCCUGUGCUACACAUCGUAUGUACCGAAUCAAACCCAAAUUUAAAUUUUUAAAAAAGUAUUAUGUUACGCCGUUCGGAUCUGCACUUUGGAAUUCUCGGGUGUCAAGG | -0.836 |
| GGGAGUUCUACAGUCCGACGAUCCUCAAGUCCUGUGCUACACAUCGUAUGUACCGAAUCGGGUUGGGUUGGUUGGGAAAGUAUUAUGUUACGCCGUUCGGAUCUGCACUUCCAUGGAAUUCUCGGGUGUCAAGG | 0.213 |
| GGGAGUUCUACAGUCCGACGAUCUGGAGAAGCGCUACCUGGCUGCUCAGCGUGAGGCAACAUCCAUCCAUGACCUCAAUGACAAGCUGGAGAAUGAGCUGGCCAACAAGGAGUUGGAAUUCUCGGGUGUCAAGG | -1.8 |
| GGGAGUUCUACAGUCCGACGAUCGUCCUGUGCUACACAUCGUAUGUACCGAAUCGGGGUUUUUGGUUUUUGGGUUUUUGGGGAAAGUAUUAUGUUACGCCGUUCGGAUCUGCAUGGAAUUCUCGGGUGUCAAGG | -0.997 |
| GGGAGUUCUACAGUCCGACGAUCGCCCUGUAAUCGUGGAGAUCCCGCACUUUGCCUCCCAUGGCCGUGGAGACCGCGAGCUCGUGGUUCUGAGGAGCGAAAACGGCUCCGUGUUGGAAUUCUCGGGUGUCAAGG | -2.35 |
| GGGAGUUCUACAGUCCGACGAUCAAGUCCUGUGCUACACAUCGUAUGUACCGAAUCAAAUUUUUAAACCCAAACCCAAAAAAGUAUUAUGUUACGCCGUUCGGAUCUGCACUUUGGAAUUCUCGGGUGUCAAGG | -0.964 |

Sample 3
Target: Interferon regulatory factor 5, full length, phosphomimetic (IRF5, Homo sapiens, UniProt Q13568-2, residues 1-514, K96S/S451D/S453D/S456D/S462D)
Technique: protein-binding microarray
Form: double-stranded DNA, one strand shown
Matrix: in vitro
Concentration: 250 nM
Setting: 60-bp whole probe
Together with: salmon DNA 0.4 mg/ml
Reference: random background probes
Reading: higher = stronger binding
Constant ends, left off below: GCCTAGCAC … GTCTTGATTCGCTTGACGCTGCTG
| Strand | log fluorescence [z-score] |
| --- | --- |
| GACGTTCTCGGACTGGGGACGTGCTAG | -0.499 |
| CTGTGTACATCTCTCTTAAAGTGCTAG | -0.123 |
| GACGATTTCAGCTCCGAGACGTGCTAG | 0.368 |
| TTAGGTATCGGGTTTCGGTTAGTGCTA | 8.07 |
| GACGGACTGGGTCTCCGGACGTGCTAG | -0.668 |
| GACGGACTGCTTTTCCGGACGTGCTAG | -0.375 |

Other studies, line by line
| Substance | target | test | system | setting | how to read | endpoint | value |
| --- | --- | --- | --- | --- | --- | --- | --- |
| PhoQ, residues 284 288 289 292 302 303 TSTLRA | PhoP, residues 12 14 15 18 19 IFFTR (Escherichia coli, UniProt P23836) | Sort-seq, measured: YFP reporter | E. coli | PhoQ-PhoP variant library, together with: 10 µM Mg2+ | reference: high Mg2+ state, higher = stronger signaling | fold induction | 1.58 |

Excerpt of the above (sample 3):
| Strand | log fluorescence [z-score] |
| --- | --- |
| GACGATTTCAGCTCCGAGACGTGCTAG | 0.368 |
| TTAGGTATCGGGTTTCGGTTAGTGCTA | 8.07 |
| GACGGACTGGGTCTCCGGACGTGCTAG | -0.668 |
